Measured values gathered from unrelated publications.
Compare with care: the assays were run in different laboratories. Numbers after ± are the reported error.

CCN(CC)CCNC(=O)c1c(C)[nH]c(/C=C2\C(=O)Nc3ccc(F)cc32)c1C  inhibition (AMPK (rat); kinase activity, inhibitor; 10 µM): 81%
COC(=O)CCc1ccc(C(=O)N/N=C/C(Br)=C/c2ccccc2)cc1  inhibition (human Hsp90β-p23 interaction; split luciferase reporter; HEK293T; 30 µM, 24 h): 19%
O=c1c(O)c(-c2ccc(O)c(O)c2)oc2c(Br)c(O)c(Br)c(O)c12  inhibition (bovine serum albumin; methylglyoxal-mediated glycation, fluorescence; concentration not given): 60.85 ± 0.43%
COCCN(C)C(=O)c1ccc(C2CCCCC2)cc1  hepatic clearance (liver microsome stability; mouse liver microsomes; 1 µM): 86 mL/min/kg
Cn1cc(-c2ccc(-c3cncc(Cl)c3N3CCC4(CCNC4=O)CC3)cc2)cn1  fold change in expression (COLO 205; microarray, item: R3HDM1; concentration not given, 6 h; reference: untreated cells): -2.26
COc1cc(NC(C)=O)c(Cl)cc1C(=O)Nc1nccs1  inhibition (KATP channel; 10 µM): -1.6%
Cc1ccc(Nc2nccc(N(C)c3ccc4c(C)n(C)nc4c3)n2)cc1S(N)(=O)=O  inhibition (AMPK (rat); kinase activity, inhibitor; 0.3 µM): 1%
COc1cccc2c1C(=O)c1c(O)c3c(c(O)c1C2=O)C[C@@](O)(C(=O)CO)C[C@@H]3O[C@H]1C[C@H](NC(=O)[C@@H]2CCCN2C(=O)CNC(=O)[C@@H](N)CC(C)C)[C@H](O)[C@H](C)O1  AUC (healthy mouse, plasma; intravenous, 94.4 mg/kg PhAc-ALGP-Dox): 0.37 µM·h
O=c1cc(-c2ccc(O)cc2)oc2c(Br)c(O)c(Br)c(O)c12  inhibition (bovine serum albumin; methylglyoxal-mediated glycation, fluorescence; concentration not given): 97.8 ± 2.09%
CN(Cc1cccnc1)C(=O)c1ccc(C2CCCCC2)cc1  hepatic clearance (hepatocyte stability; cryopreserved human hepatocytes; 1 µM): 18 mL/min/kg
O=C(c1ccc(Cl)cc1)N(Cc1ccccc1)C1CCCCC1  inhibition (GABA transporter; 10 µM): -8.8%
C#Cc1cc(-c2cc(Nc3nc(N[C@@H](C)c4ccc(F)cn4)ncc3Cl)n[nH]2)ccc1C=O  inhibition (LYN B kinase, human; enzyme activity; 0.2 µM): -4.35%
Oc1cccc(Nc2nc(-c3ccc(F)cc3F)cs2)c1  inhibition (KATP channel; 10 µM): -15.6%
CNCc1ccc(-c2cc(-c3nc(-c4ccc(S(=O)(=O)C(C)C)cc4)cnc3N)on2)cc1  inhibition (AMPK (rat); inhibitor; 0.4 µM, with: ATP at Km): 0%
O=C1C[C@@H](c2ccc(O)cc2)Oc2c(Br)c(O)c(Br)c(O)c21  inhibition (bovine serum albumin; methylglyoxal-mediated glycation, fluorescence; concentration not given): 96.53 ± 0.34%
CCN1CCN(Cc2ccc(NC(=O)c3ccc(C)c(Oc4ccnc5[nH]ccc45)c3)cc2C(F)(F)F)CC1  inhibition (ERK1/2 human; Huh-7; 1 µM): -51.4%
O=c1cc(-c2ccc(O)c(O)c2)oc2c(Br)c(O)c(Br)c(O)c12  inhibition (bovine serum albumin; methylglyoxal-mediated glycation, fluorescence; concentration not given): 95.4 ± 1.41%
Cc1cc(F)cc2c(CCC(=O)N[C@@H]3C(=O)NC[C@H]3O)c(-c3ccc(F)cc3)[nH]c12  inhibition (GABAB receptor, non-selective; binding; 10 µM): 1%

A few entries again:
Cn1cc(-c2ccc(-c3cncc(Cl)c3N3CCC4(CCNC4=O)CC3)cc2)cn1  fold change in expression (COLO 205; microarray, item: R3HDM1; concentration not given, 6 h; reference: untreated cells): -2.26
